Published values pooled from the literature.
Numbered parts are unrelated; each lists some results of a single study. Substitutions count along the parent as printed.

Study 1 — method: RNA Bind-n-Seq; form: RNA; medium: in vitro; concentration: 365 nM; baseline: no-protein control; direction: higher = stronger binding
Target: RNA binding protein fox-1 homolog 2, RRM domain, GST-SBP tag (RBFOX2, Homo sapiens, UniProt O43251-10, residues 100-194)
Setting: natural RNA segment, single round, ends assumed
Constant ends, left off below: GGGAGUUCUACAGUCCGACGAUC … UGGAAUUCUCGGGUGCCAA
Residues (chain): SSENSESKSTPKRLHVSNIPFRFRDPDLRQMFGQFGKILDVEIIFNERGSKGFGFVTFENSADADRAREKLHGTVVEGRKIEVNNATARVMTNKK
| Oligonucleotide | RBNS enrichment (R) |
| --- | --- |
| UGCUUAGUUGCCAAACAAGGGGUCUUCCACCCCCUAUUCUACUGAUUUCUGGACCCAGGGAAGGGAACUCAGCCCCUUACAACUCUUGGGGCUCCUCCAGGCCAGGGCCC | 0.356 |
| UGCUGGGGACAAUCCCGGGUAGGAAUGAUGGGAUCUAAAUGACACCGGAGGCUCUGGGGGGAGGGCAGCCUUUCAGUCAGCCCCCAUGCCUGCUGGGCUCUGGGCAGCCC | 1.99 |
| GUGAGACAGCCAGGUGUCUUUCUUUUGCGGGGGGACACUUCAGACCCAUCAAUAUGGAAUUUUGGGAGCCGACCUGAGUGCAAAUCCUAAUUCUGCCCCUGUUGGUGCAG | 0.22 |
| GCACUCGCUUUAGUGCCUAGUACAGUGCUGAGCACACAGUAGGUGUUUAAUAAAUGCUUGUUAAAUUUUGUGUGGAUUUUUUUGUAAUGUUGAGAUUUUUAAGGGCUUUC | 1.83 |
| AGAUUGGAUCAUUUCCUUUUGAGUGUUCUUCUCUUUGGUACAAAAGCUAUUGUGGGUGACAGGAGCAGUGUUUUCCUGCUGGACCCGCAAGCCACCAGCUAUUUCCUGGU | 0.299 |
| UGUAGUUUACUUAAGCCAAAAUGUGUUUUUUUCCCCUUGAUAGCUUCGCUAAUAUUUUAAACAGUCCUGUAAAAAACCAAAAAGGACUUUUUGUAUAGAAAGCACUACCC | 0.812 |
| UAUAACAGAACCUUCUGUAUAGGUUCUGGCAAUCAAGAGAUGUAUAAUAAAACAUAGCUUACGUGAACUCGGUGUCCUCCAUCCUUCAGGGAGCCAGGGGGCUGUGGGAC | 0.236 |
| CAGAAAAGAUUUAUUAGAAAACCCUCACCCCAACCUGGUGAGGCAGUCACUCAUGACUGGAGGAAACAGGCUUCCUCCACAAAAGUCUCUCUAUAAAAUAUAUAAAACAC | 0.537 |
| GGAAAGUUGGGCGUAAAGAUGGUCAGAUGUUGCCAGGCGAAGAUGAGCCUCUUCAUGCUCUAGUCACUGCCAAUACGAUGGAGAAUGUCAAAAAGGCAGUAGAACAGGUC | 1.18 |
| CCCCUGCAAGAAACAAGGCUGCUGGAGUAAGUGUCCCAGGAGAGUCUGACCUCAUCACCAGAGCUGCUGGUGGGGCCUCAUUCCUUGCAGCAGAUGGGUGAGCUGCACCA | 1.02 |
| GGUGAGGGUCAGAGAAAGUUCUGGUGCUUUUCCUGUGCUCUAAGAGCUGAGAGCCAGAAAUGCAGAUUCAAUUUGGAAGGAGAUGGGAUAGCUGAAGAACUUACCACGUC | 0.747 |
| UUUCUGCAAUUCCUUUGGGCGAUUUCUGAAAGUUGCCACCCACGUACUCACAGAUCCACUGCCCGCCUCUCCUCCCCUCAUGUUCCAGGACUCACCACCGUGGUCAGACC | 0.322 |

Study 2 — method: DHFR PCA, deep sequencing; medium: yeast; added: (+)-ABA 1.4 µM; baseline: wild-type fitted maximum; direction: higher = stronger binding
Target: ABI1, truncated, D143A, DHFR fusion (Arabidopsis thaliana)
Setting: methotrexate growth selection, single substitutions
Starting sequence: PYL1, truncated, DHFR fusion (Arabidopsis thaliana); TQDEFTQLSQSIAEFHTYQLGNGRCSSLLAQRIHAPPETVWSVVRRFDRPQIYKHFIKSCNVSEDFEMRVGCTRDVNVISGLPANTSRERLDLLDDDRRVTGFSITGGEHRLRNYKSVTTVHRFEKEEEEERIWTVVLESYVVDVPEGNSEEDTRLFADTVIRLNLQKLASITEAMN
| Change | relative binding score |
| --- | --- |
| T106Y | 45.5% |
| F15T | 4.66% |
| K54L | -7.33% |
| S80R | -1.76% |
| G108P | -13.5% |
| D153V | -2.38% |
| S59Y | 4.4% |
| T106S | 7.37% |
| D95I | -1.4% |
| Y115T | -10% |
| L82T | 3.86% |
| V161N | 7.41% |
| D75A | 33.8% |
| V40L | 2.66% |
| G71Q | 2.11% |
| Y141K | -15.1% |
| I105G | -3.37% |
| L28P | 7.94% |

Study 3 — method: Sort-seq; refers to: YFP reporter; medium: E. coli; setting: PhoQ-PhoP variant library; added: 10 µM Mg2+; baseline: high Mg2+ state; direction: higher = stronger signaling
Substance: PhoQ, residues 284 288 289 292 302 303 SVHLDV
| target | fold induction |
| --- | --- |
| PhoP, residues 12 14 15 18 19 VGHWL (Escherichia coli, UniProt P23836) | 2.25 |
| PhoP, residues 12 14 15 18 19 TPWTL (Escherichia coli, UniProt P23836) | 1.66 |
| PhoP, residues 12 14 15 18 19 LHHYF (Escherichia coli, UniProt P23836) | 4.73 |

Study 4 — target: CCND1, cyclin fold, Cln2 fusion (human); method: yeast growth competition, sequencing; medium: yeast; setting: strong parent motif; baseline: not given; direction: higher = stronger binding
Starting sequence: INSM1 docking peptide (human); PKAIRKLHFEDEV
| Change | normalised enrichment score |
| --- | --- |
| PKAIRKRHFEDEV [L7R] | 0.00628 |
| PKAKRKLHFEDEV [I4K] | 4.06 |
| PKAIRKHHFEDEV [L7H] | -0.0941 |
| PQAIRKLHFEDEV [K2Q] | 3.68 |
| PKAERKLHFEDEV [I4E] | 0.599 |
| PKAIRKFHFEDEV [L7F] | -0.015 |
| PKAQRKLHFEDEV [I4Q] | 4.02 |
| PKAIRKLHFADEV [E10A] | 3.12 |
| PKAARKLHFEDEV [I4A] | 5.7 |
| PKACRKLHFEDEV [I4C] | 5.33 |
| PKFIRKLHFEDEV [A3F] | 0.31 |
| PKAIRKLHFGDEV [E10G] | 5.5 |
| PKAILKLHFEDEV [R5L] | 1.37 |
| PKAIRKLHPEDEV [F9P] | 0.0828 |
| PKAIRKLHMEDEV [F9M] | 0.673 |
| PKAIQKLHFEDEV [R5Q] | 1.63 |
| PKAIRKLMFEDEV [H8M] | 5.34 |
| PKAIRKIHFEDEV [L7I] | 2.86 |
| PKQIRKLHFEDEV [A3Q] | 0.0909 |
| PKAIRKLKFEDEV [H8K] | 4.72 |
| PKAIHKLHFEDEV [R5H] | 0.23 |
| PKAIRKLHVEDEV [F9V] | 0.0931 |
| PHAIRKLHFEDEV [K2H] | 3.7 |
| PKAIVKLHFEDEV [R5V] | 1.48 |
| PKAIRKLHFWDEV [E10W] | 0.976 |

Study 5 — method: protein binding microarray; form: double-stranded DNA, one strand shown; medium: in vitro; concentration: not given; baseline: not given; direction: higher = stronger binding
Target: Histone acetyltransferase KAT6A, both winged helices, GST fusion (KAT6A, Homo sapiens, UniProt Q92794, residues 1-181)
Setting: 8-mer, flanks averaged, mean of 2 arrays, mostly near background
Target sequence (chain): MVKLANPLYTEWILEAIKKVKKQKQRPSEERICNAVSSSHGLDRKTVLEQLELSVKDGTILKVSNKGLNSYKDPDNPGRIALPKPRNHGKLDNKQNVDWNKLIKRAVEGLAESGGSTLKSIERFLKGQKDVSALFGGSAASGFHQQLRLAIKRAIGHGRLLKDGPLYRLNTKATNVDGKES
| Oligonucleotide | E-score |
| --- | --- |
| AGTCTAGG | -0.0928 |
| CCAGTACC | -0.0869 |
| CCCTTGGC | -0.129 |
| CATGGTTA | -0.0524 |
| CCACGGGC | 0.251 |
| CTACGCTA | 0.124 |
| AGCGTACG | 0.239 |
| CCCAGGCC | -0.0656 |
| GATAGTCC | -0.0114 |
| AAGACGAC | -0.0507 |
| CAGCACCC | -0.0532 |
| ATCGTCTG | 0.0895 |
| CACCGTCC | 0.108 |
| CCCATGCA | -0.157 |
| ATCTCATG | 0.0155 |
| CAAATTTA | -0.0538 |
| TATAATCA | -0.124 |
| CATAGTGG | -0.14 |
| ACACTCGC | 0.0665 |
| CACGATAC | -0.0218 |
| GAAATCTA | -0.0414 |
| CCAAGTGG | -0.132 |

Study 6 — method: RNA Bind-n-Seq; form: RNA; medium: in vitro; concentration: 200 nM; setting: whole 134-nt RNA, ends assumed; added: 150 mM LiCl; baseline: input library; direction: higher = stronger binding; each molecule: 7-deaza-guanosine replaces G
Target: Ras GTPase-activating protein-binding protein 1, full length (G3BP1, Homo sapiens, UniProt Q13283)
Sequence of UniProt Q13283 (whole entry, looked up): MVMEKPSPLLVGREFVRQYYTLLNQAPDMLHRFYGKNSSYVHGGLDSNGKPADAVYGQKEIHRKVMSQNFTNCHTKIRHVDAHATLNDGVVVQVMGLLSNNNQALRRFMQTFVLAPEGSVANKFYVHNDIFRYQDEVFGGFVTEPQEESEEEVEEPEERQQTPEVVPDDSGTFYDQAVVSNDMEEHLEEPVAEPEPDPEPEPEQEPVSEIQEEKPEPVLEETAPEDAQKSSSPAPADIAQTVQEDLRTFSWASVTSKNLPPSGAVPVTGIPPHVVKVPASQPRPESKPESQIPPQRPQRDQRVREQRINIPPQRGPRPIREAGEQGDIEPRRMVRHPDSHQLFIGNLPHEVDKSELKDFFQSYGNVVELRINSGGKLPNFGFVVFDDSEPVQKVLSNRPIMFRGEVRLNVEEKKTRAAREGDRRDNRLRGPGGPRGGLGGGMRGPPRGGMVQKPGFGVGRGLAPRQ
Constant ends, left off below: GGGAGUUCUACAGUCCGACGAUC … UGGAAUUCUCGGGUGUCAAGG
| Oligonucleotide | log2 enrichment |
| --- | --- |
| CCUCAAGUCCUGUGCUACACAUCGUAUGUACCGAAUCGGGGUGGGUGGUGGGGAAAGUAUUAUGUUACGCCGUUCGGAUCUGCACUUCCA | -0.2 |
| UGUGAGCGGAGCCUGGAGGAGCUGCUGCACUACGUGGGCCAGCUGCGGGCUGAGCUGGCCAGCGCAGGUGGGUGGCCACCCUUGCAAGUG | -0.153 |
| AGUCCUGUGCUACACAUCGUAUGUACCGAAUCGGGUGGGUUUUUUUGGGUUUUUGGGAAAGUAUUAUGUUACGCCGUUCGGAUCUGCACU | -0.218 |
| UGUGGACGACAAUGAGGAGACCAUCAAAAAGCGGCUGGAGACCUAUUACAAGGCCACAGAACCUGUCAUCGCCUUCUAUGAGAAACGUGG | -0.284 |
| AGUCCUGUGCUACACAUCGUAUGUACCGAAUCGGUUUUUGGUUUUUGGAAAAAAAGGAAAGUAUUAUGUUACGCCGUUCGGAUCUGCACU | -2.02 |
| UCCUGUGCUACACAUCGUAUGUACCGAAUCGGCCCCCCCGGGCCCCCCCGGCCCCCCCGGAAAGUAUUAUGUUACGCCGUUCGGAUCUGC | 0.558 |
| GUCCUGUGCUACACAUCGUAUGUACCGAAUCGGGGUUUGGGGUGGGGUUUUUUUGGGGAAAGUAUUAUGUUACGCCGUUCGGAUCUGCAC | 0.23 |
| CAAGUCCUGUGCUACACAUCGUAUGUACCGAAUCGGUUUUGGUUUUGGUUUUGGGGAAAGUAUUAUGUUACGCCGUUCGGAUCUGCACUU | -0.918 |
| CAAGUCCUGUGCUACACAUCGUAUGUACCGAAUCGGGUUUGGGAGGGUUUUUGGGAAAGUAUUAUGUUACGCCGUUCGGAUCUGCACUUC | 0.14 |
| GCAGGAAGUAAAAACAAAUGGAAAUGCUUCGGAUAGUGGCAGGGGUGUGGGUUGCUAAGGAAAGGGUGGGAUGGGAGUGGGUAAAGAGUU | 0.242 |
| CUCAAGUCCUGUGCUACACAUCGUAUGUACCGAAUCGGGAGGGUGGGAAAGGGAAAGUAUUAUGUUACGCCGUUCGGAUCUGCACUUCCA | -0.333 |

For quick reference, copied from above (study 4):
| Change | normalised enrichment score |
| --- | --- |
| PKAKRKLHFEDEV [I4K] | 4.06 |
| PKAIRKHHFEDEV [L7H] | -0.0941 |
| PQAIRKLHFEDEV [K2Q] | 3.68 |
| PKAERKLHFEDEV [I4E] | 0.599 |
| PKAIRKFHFEDEV [L7F] | -0.015 |
| PKAQRKLHFEDEV [I4Q] | 4.02 |
| PKAIRKLHFADEV [E10A] | 3.12 |
| PKAARKLHFEDEV [I4A] | 5.7 |
| PKACRKLHFEDEV [I4C] | 5.33 |
| PKFIRKLHFEDEV [A3F] | 0.31 |
| PKAIRKLHFGDEV [E10G] | 5.5 |
| PKAILKLHFEDEV [R5L] | 1.37 |
| PKAIRKLHPEDEV [F9P] | 0.0828 |
| PKAIRKLHMEDEV [F9M] | 0.673 |
| PKAIQKLHFEDEV [R5Q] | 1.63 |
